Experimental data gathered from unrelated publications.
A part holds a random share of what one study measured. Substitutions count along the parent as printed.

Sample 1
Target: UDP-N-acetylglucosamine--peptide N-acetylglucosaminyltransferase 110 kDa subunit (OGT, Homo sapiens, UniProt O15294)
Chain of UniProt O15294 (whole entry, looked up): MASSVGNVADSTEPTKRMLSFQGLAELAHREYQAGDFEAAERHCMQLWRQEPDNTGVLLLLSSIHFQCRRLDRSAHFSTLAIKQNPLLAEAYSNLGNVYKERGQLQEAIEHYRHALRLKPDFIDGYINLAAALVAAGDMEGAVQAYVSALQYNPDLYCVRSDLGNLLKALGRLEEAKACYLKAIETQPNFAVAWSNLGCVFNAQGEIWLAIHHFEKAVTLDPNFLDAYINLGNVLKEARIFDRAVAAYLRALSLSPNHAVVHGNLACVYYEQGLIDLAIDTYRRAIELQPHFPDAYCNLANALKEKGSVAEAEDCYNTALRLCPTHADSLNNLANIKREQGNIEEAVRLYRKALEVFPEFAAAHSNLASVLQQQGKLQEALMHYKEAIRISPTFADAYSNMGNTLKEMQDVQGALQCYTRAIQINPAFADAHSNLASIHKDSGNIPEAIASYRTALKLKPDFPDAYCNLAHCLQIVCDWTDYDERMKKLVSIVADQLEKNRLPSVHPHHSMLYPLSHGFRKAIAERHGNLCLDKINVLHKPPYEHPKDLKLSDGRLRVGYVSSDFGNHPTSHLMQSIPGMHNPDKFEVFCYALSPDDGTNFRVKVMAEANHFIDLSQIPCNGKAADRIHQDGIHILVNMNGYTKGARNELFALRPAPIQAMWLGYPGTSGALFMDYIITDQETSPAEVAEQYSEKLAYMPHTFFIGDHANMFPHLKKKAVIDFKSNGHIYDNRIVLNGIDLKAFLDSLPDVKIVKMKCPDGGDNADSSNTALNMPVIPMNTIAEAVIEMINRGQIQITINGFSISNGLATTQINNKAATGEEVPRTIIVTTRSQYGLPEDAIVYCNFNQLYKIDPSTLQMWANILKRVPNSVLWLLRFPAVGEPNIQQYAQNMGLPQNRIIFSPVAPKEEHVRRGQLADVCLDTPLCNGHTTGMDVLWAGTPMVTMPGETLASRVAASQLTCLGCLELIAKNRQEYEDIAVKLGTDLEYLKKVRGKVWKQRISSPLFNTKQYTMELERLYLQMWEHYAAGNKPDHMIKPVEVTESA
Effect on: phage display binding
Method: phage display panning NGS
Form: peptide
Setting: panning round 3
Relative to: OGT-panned over input library
`DSMLFTPLYQITVPH` gave a fold enrichment of 5.21.
With `QPYFLPKYVITVDNS` the fold enrichment was 2.97.
With `VYSPVYQIIVNQNH` the fold enrichment was 2.69.
With `SFLKYQPKYPIVYNV` the fold enrichment was 4.1.
With `QQIPSIMPMYQIVTP` the fold enrichment was 2.69.
`FPSFLPAYPIEYSNT` has a fold enrichment of 6.02.
The fold enrichment of `TMYEPMYQIKVIAHG` is reported as 2.91.

Sample 2
Target: vanadate, free oxyanion
Method: microfluidic competitive inhibition
Medium: in vitro, cell-free expressed
Tested at: not given
Setting: derived from inhibition constants, unchanged parent 676 nM
Reading: lower = stronger binding
Parent: PafA, mature enzyme, eGFP fusion (Elizabethkingia meningoseptica, UniProt Q9KJX5); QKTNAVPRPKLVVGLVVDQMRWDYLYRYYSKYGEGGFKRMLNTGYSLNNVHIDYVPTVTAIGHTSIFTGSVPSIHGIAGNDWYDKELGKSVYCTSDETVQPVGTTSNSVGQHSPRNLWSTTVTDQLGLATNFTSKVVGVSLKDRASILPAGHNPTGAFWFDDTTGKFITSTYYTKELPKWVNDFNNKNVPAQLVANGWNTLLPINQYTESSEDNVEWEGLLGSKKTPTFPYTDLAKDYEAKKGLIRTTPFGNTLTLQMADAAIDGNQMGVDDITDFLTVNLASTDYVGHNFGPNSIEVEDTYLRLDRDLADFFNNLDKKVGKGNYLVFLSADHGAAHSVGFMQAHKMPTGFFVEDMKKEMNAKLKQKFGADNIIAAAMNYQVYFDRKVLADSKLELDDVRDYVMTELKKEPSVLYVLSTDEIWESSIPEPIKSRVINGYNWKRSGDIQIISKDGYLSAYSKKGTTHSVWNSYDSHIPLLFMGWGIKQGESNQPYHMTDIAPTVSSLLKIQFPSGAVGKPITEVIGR
Under “oxyanion analog dissociation constant”, `F368G` is recorded as 553 nM.
`K166G`: “oxyanion analog dissociation constant” 1.08 µM.
`S95V` — result for “oxyanion analog dissociation constant”: 2.54 µM.
`D401V`: “oxyanion analog dissociation constant” 657 nM.
For `N379G`, “oxyanion analog dissociation constant” read 1.55 µM.
Under “oxyanion analog dissociation constant”, `P178V` is recorded as 623 nM.
Under “oxyanion analog dissociation constant”, `L126G` is recorded as 1.31 µM.
`S425V`: “oxyanion analog dissociation constant” 585 nM.
Under “oxyanion analog dissociation constant”, `R434V` is recorded as 923 nM.
`N372V`: “oxyanion analog dissociation constant” 862 nM.
`E86V`: “oxyanion analog dissociation constant” 521 nM.
`D124G` — result for “oxyanion analog dissociation constant”: 994 nM.
`R21V`: “oxyanion analog dissociation constant” 912 nM.
For `G438V`, “oxyanion analog dissociation constant” read 695 nM.
`N205V` — result for “oxyanion analog dissociation constant”: 693 nM.
`T121V` — result for “oxyanion analog dissociation constant”: 827 nM.
`I450G`: “oxyanion analog dissociation constant” 1.36 µM.
`N107G`: “oxyanion analog dissociation constant” 840 nM.
Under “oxyanion analog dissociation constant”, `K224G` is recorded as 588 nM.
Under “oxyanion analog dissociation constant”, `L47V` is recorded as 597 nM.
For `W198V`, “oxyanion analog dissociation constant” read 699 nM.
`H289G` — result for “oxyanion analog dissociation constant”: 2.8 µM.
`K408G`: “oxyanion analog dissociation constant” 614 nM.
`N314G`: “oxyanion analog dissociation constant” 566 nM.
`T105V` — result for “oxyanion analog dissociation constant”: 718 nM.

Sample 3
Target: CCND3, cyclin fold, Cln2 fusion (human)
Method: yeast growth competition, sequencing
Medium: yeast
Setting: weak parent motif
Relative to: not given
Reading: higher = stronger binding
Parent: viral docking peptide; TSVRRALFTGGSD
Under “normalised enrichment score”, `TSVRRALFPGGSD [T9P]` is recorded as -0.0305.
`TSVRRALFTGGQD [S12Q]` — result for “normalised enrichment score”: 0.286.
`TSVRRALRTGGSD [F8R]` — result for “normalised enrichment score”: -0.0417.
For `TSVRRALFTGASD [G11A]`, “normalised enrichment score” read 0.11.
`TSVRRALGTGGSD [F8G]`: “normalised enrichment score” -0.115.
For `TSVRRALVTGGSD [F8V]`, “normalised enrichment score” read -0.0371.
`TSVRRAFFTGGSD [L7F]`: “normalised enrichment score” -0.0681.
Under “normalised enrichment score”, `TSVRKALLTGGSD [R5K F8L]` is recorded as 0.181.
`TSVRRALFTFGSD [G10F]` — result for “normalised enrichment score”: -0.145.
For `TSVDRALFTGGSD [R4D]`, “normalised enrichment score” read -0.479.
`TSVRMALFTGGSD [R5M]`: “normalised enrichment score” -0.00313.
`TSVRRALTTGGSD [F8T]` — result for “normalised enrichment score”: 0.239.
`TSVRRALFNGGSD [T9N]` — result for “normalised enrichment score”: 0.0451.
Under “normalised enrichment score”, `TSVRRALFTGTSD [G11T]` is recorded as 0.203.
Under “normalised enrichment score”, `TSVRIALFTGGSD [R5I]` is recorded as 0.0927.
Under “normalised enrichment score”, `TSVRRYLFTGGSD [A6Y]` is recorded as -0.138.
Under “normalised enrichment score”, `TQVRRALFTGGSD [S2Q]` is recorded as -0.417.
`TSERRALFTGGSD [V3E]`: “normalised enrichment score” -0.106.
`TSVERALFTGGSD [R4E]`: “normalised enrichment score” -0.0895.
`TSVRRILFTGGSD [A6I]` — result for “normalised enrichment score”: 0.381.
`TSIRRALFTGGSD [V3I]` — result for “normalised enrichment score”: 0.108.
For `TSVRRALFKGGSD [T9K]`, “normalised enrichment score” read 0.245.
For `TSVRRALFTGMSD [G11M]`, “normalised enrichment score” read -0.00899.
For `TSVSRALFTGGSD [R4S]`, “normalised enrichment score” read 0.336.
Under “normalised enrichment score”, `TSVRRALFTLGSD [G10L]` is recorded as 0.619.

Sample 4
Target: NFE2L3, bZIP domain (human)
Method: DHFR protein complementation
Medium: yeast
Setting: single substitutions, most at no-binding floor
Relative to: wild-type JUN-FOS pair
Reading: higher = stronger binding
Parent: JUN, bZIP domain (human); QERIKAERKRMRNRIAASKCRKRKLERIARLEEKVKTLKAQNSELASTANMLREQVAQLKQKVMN; partner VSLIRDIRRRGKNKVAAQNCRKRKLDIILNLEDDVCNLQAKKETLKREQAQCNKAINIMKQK
For `V56K`, the binding fitness was -1.48 natural log.
With `L31W` the binding fitness was -1.49 natural log.
With `A29M` the binding fitness was -1.44 natural log.
`V35L` gave a binding fitness of -1.49 natural log.
The binding fitness of `E33W` is reported as -1.48 natural log.
`A29W` has a binding fitness of -1.37 natural log.
`L45D` gave a binding fitness of -1.59 natural log.
With `E54Y` the binding fitness was -1.56 natural log.

Repeated from above (sample 3):
`TSVRRALFTGGQD [S12Q]` — result for “normalised enrichment score”: 0.286.
Under “normalised enrichment score”, `TSVRIALFTGGSD [R5I]` is recorded as 0.0927.
For `TSVRRALVTGGSD [F8V]`, “normalised enrichment score” read -0.0371.
`TSVERALFTGGSD [R4E]`: “normalised enrichment score” -0.0895.
Under “normalised enrichment score”, `TSVRRALFPGGSD [T9P]` is recorded as -0.0305.
`TSVRRALTTGGSD [F8T]` — result for “normalised enrichment score”: 0.239.
`TSVRRALFNGGSD [T9N]` — result for “normalised enrichment score”: 0.0451.
